Experimental data collected from several papers.
Every numbered part comes from another study and shows a few of its results, in no order.

Set 1 — method: RNA Bind-n-Seq; molecule type: RNA; sample: in vitro; concentration: 1 µM; setting: whole 134-nt RNA, ends assumed; together with: 150 mM KCl; relative to: input library; direction: higher = stronger binding; endpoint: log2 enrichment
Target: Ras GTPase-activating protein-binding protein 1, RRM domain (G3BP1, Homo sapiens, UniProt Q13283)
Sequence of UniProt Q13283 (whole entry, looked up): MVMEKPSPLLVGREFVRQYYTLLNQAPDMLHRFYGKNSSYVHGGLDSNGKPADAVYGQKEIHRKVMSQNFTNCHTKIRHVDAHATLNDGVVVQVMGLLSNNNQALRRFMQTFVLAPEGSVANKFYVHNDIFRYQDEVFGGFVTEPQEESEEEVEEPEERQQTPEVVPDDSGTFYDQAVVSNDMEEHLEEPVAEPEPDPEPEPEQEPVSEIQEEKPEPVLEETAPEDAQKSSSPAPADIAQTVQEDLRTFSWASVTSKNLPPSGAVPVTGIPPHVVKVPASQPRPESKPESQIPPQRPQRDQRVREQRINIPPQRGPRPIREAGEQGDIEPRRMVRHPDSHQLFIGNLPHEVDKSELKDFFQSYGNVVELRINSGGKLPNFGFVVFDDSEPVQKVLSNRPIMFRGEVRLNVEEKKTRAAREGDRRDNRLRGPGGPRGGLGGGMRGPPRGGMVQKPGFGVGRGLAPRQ
Shared flanks, not repeated: GGGAGUUCUACAGUCCGACGAUC … UGGAAUUCUCGGGUGUCAAGG
ACCAUGCAGGUGGGCAUCUUUGGGAAGUGGGGCAAGGGAGGGAUAGGGAGGGGGGUAACACUUUGGGAACAGGUGGUCCCAGGUCGUUUC: -0.607
UAUUGAUGCAUUUGACCCUACACUGGCUCCAGCCACAGGAACUCCUGUUGUCGGGGGACUAACCUAUCGAGAAGGCAUGUAUAUUGCUGA: -0.202
AGUCCUGUGCUACACAUCGUAUGUACCGAAUCGGGUUUGGGUUUUUGGGAAAAAGGGAAAGUAUUAUGUUACGCCGUUCGGAUCUGCACU: 0.55
ACCAUGCAGGUGGGCAUCUUUGGGAAGUGCGGCAAGGGGGGGAUAGGGAGGGGGGUAACACUUUGGGAACAGGUGGUCCCAGGUCGUUUC: -0.516
GGUAUUCUGCAAGUACUGUAGAUGUUAUAGAAAUGAUGGAGGAUGAUAAAGUUGAUCUGAAUUUGAUUGUUGCCCUCAUCCGAUACAUUG: -0.232
GCAGGAAGUAAAAACAAAUGGAAAUGCUUCGGAUAGUGGCAGGGGUGGGGGUUGCUAAGGAAACGGUGGGAUGGGAGUGGGUAAAGAGUU: 0.818
UGCCUCUGCGGCUAGCUGAUUUUGGGGUACUUCAUAGGAACGAGCUGUCUGGAGCACUCACAGGACUCACCCGGGUACGAAGAUUCCAAC: -0.536
CAAGUCCUGUGCUACACAUCGUAUGUACCGAAUCGGGUUUUUGGGAGGGAAAGGGAAAGUAUUAUGUUACGCCGUUCGGAUCUGCACUUC: 0.689
UUUUAGGAAGCUGCAGUAAAGGAAGAUGAAGAAGAAGUUUCAGAUAAGGGCAGUGAUUCUGAAGAAGAAGAAACCAAUAGAGAUUCCCAA: -0.0262

Set 2 — method: protein-binding microarray; molecule type: double-stranded DNA, one strand shown; sample: in vitro; concentration: 940 nM top; setting: 60-bp whole probe; together with: salmon DNA 0.4 mg/ml; relative to: random background probes; direction: higher = stronger binding; endpoint: fitted relative affinity; shared flanks, not repeated: GCCTAGCAC … GTCTTGATTCGCTTGACGCTGCTG
Target: Interferon regulatory factor 5, full length, phosphomimetic (IRF5, Homo sapiens, UniProt Q13568-2, residues 1-514, S451D/S453D/S456D/S462D)
GACGGTGTCGACTATCGGGACGTGCTA: 0.257 z-score
TTAGAGTTCAGACTGGATTAGTGCTAG: -0.502 z-score
GACGATATCGGGTTTCGCGACGTGCTA: 0.71 z-score
TCAACTTTCTTTCAAATACTGTGCTAG: 1.69 z-score
TTAGGACGGGACTATCGGTTAGTGCTA: -0.277 z-score
TTAGGACTGCTTATCCTTGAGTGCTAG: -0.331 z-score
GACGGTTTCGGTTCCGGGAAGTGCTAG: 13.8 z-score
TTAGGACTGGGACTCGGTTAGTGCTAG: -0.384 z-score
GACGGTATCGGGTTTCGGGAAGTGCTA: 5.87 z-score
TTAGATATCAGTATCGAATAGTGCTAG: 1.58 z-score
CTAGGTTTCGACACTGGGTTAGTGCTA: 6.98 z-score
TTAGGTTTCGGGACTGAGTTAGTGCTA: 7.9 z-score
GGCGGACTGCTTTTCCTGACGTGCTAG: -0.391 z-score
GACGGTATCGGTCGCGGGACGTGCTAG: 8.23 z-score
TCATGGCTGACTTTGGAACTGTGCTAG: -0.28 z-score
TTTTTTTTTACTTCGGGTGAGTGCTAG: 1.1 z-score
GACGGTCTCCTGCTGCTGACGTGCTAG: -0.353 z-score
TTAGAACTGGGGTATCGAGTAGTGCTA: 1.04 z-score
GACGGTTTCGACACTGGGGTCGTGCTA: 7.99 z-score

Set 3 — method: RNA Bind-n-Seq; molecule type: RNA; sample: in vitro; concentration: 365 nM; relative to: no-protein control; direction: higher = stronger binding; endpoint: RBNS enrichment (R)
Target: RNA binding protein fox-1 homolog 2, RRM domain, GST-SBP tag (RBFOX2, Homo sapiens, UniProt O43251-10, residues 100-194)
Setting: natural RNA segment, single round, ends assumed
Shared flanks, not repeated: GGGAGUUCUACAGUCCGACGAUC … UGGAAUUCUCGGGUGCCAA
Construct (chain): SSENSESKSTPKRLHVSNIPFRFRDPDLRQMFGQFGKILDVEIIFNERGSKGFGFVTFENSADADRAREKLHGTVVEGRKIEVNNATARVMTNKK
CAGCAACGUGAUCUGUAACUUGAUGUGGAGACGGGUGGUAGGACCCUGCUGAGGUUCAGAACUUUGAACCCUCAGGUUCUCCUGGGUUUACUUCACCUGAGGGAAUAGCC: 1.67
CUGUGCAAUUAUGUAAAUUUUCAACUGUCUUCCUCAAAAUAAAGAAGUAUGGUAAUCUUUACCUGUAUACAGUGCAGAGCCUUCUCAGAAGCACAGAAUAUUUUUAUAUU: 0.373
UGGGCUGGAGAGCCUCUCUGUGCAGCGGUGUGGGGUGAGCCCUGCUGUGGCCUCCUUGUGGUGGUCCCUCUUCCCACGUGCAGCCCUGUUGGGAAGAAAGGAAGAAAACA: 0.434
AAGUGCUACCUCUGAUCUAACUAGAGCAAGCUCAUGGCAGAAAAUAUCACAAACUUUAAAAUGUGAAGAUUCCUGUCUCUCCCGUGGUUUUAAAGGCAAGUGGUGUCCAA: 0.397
UCUAGCCUGCUGUGGAAGGAAACAACGUGACUCAAGAUGAAGCUGUUUGUAUGUAUCCUUAUCAAAUAUAUUCUAUAAGGAAAUAAAAUCUGAAAAGUGACUUUCUUAUU: 0.923
ACUUGUAGACAUUUAUUUAUACUGUGUCAUGUUUUAUAAUUUAUACAUAAAAUGUCUGGUUGACUGUAUACCUUGUUUUUGAAGAAAUUUAUUCGUGAAAGGAAGAGCAG: 0.862
CUGCCUCCUGAGGGUGUGGGGUUAUUAGGGUCUCAAUACUUUCUCAAGGGGCUACACUCCCCAUCAGGCAGCAUCCCACCAGCCUGCACCACAGGCUCCCCUGGGAGGAC: 0.338
CGCUGUCCUGGUGGUAUUUACAAUGACAUCCUCCUCCUCCAUCACUCCAGGGGUGGUGUCUCGGCCGCCCCUACCAGCUGGCUGAGCCCCCUGGCCUCCUGCGCUCCCUC: 0.314

Set 4 — method: protein binding microarray; molecule type: double-stranded DNA, one strand shown; sample: in vitro; concentration: not given; relative to: not given; direction: higher = stronger binding; endpoint: E-score
Target: Histone acetyltransferase KAT6A, winged helix 1, GST fusion (KAT6A, Homo sapiens, UniProt Q92794, residues 1-85)
Setting: 8-mer, flanks averaged, mean of 2 arrays, mostly near background
Target sequence (chain): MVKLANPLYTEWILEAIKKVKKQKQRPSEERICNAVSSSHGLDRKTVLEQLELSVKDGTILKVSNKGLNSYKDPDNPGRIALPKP
GTCGAGTA: -0.018
GAATCGAA: -0.111
CTTTGGCA: -0.206
GCGAGGCC: 0.0946
GCACACGA: 0.0118
CGCACGTA: 0.114
CTCTTCAC: -0.161
CATTCTCA: -0.0918
GGGTCGCA: 0.154
GTCCCGTA: 0.265
CACGATTA: -0.0177
ACGACGCT: 0.111
AAGGCCTT: -0.118
CCAGACAA: -0.234
GTTCGCTA: 0.00717
GACAATAC: -0.0836
CATGGCGC: 0.357
ATTTTGGA: -0.159
GTGCGAGA: -0.295
ATTACCTG: -0.0177
GCGTCGAA: 0.213
ATCAACAG: -0.0454
AAATGTGG: -0.198
GAAAGCGA: 0.0117

For quick reference, copied from above (set 3):
CGCUGUCCUGGUGGUAUUUACAAUGACAUCCUCCUCCUCCAUCACUCCAGGGGUGGUGUCUCGGCCGCCCCUACCAGCUGGCUGAGCCCCCUGGCCUCCUGCGCUCCCUC: 0.314
UGGGCUGGAGAGCCUCUCUGUGCAGCGGUGUGGGGUGAGCCCUGCUGUGGCCUCCUUGUGGUGGUCCCUCUUCCCACGUGCAGCCCUGUUGGGAAGAAAGGAAGAAAACA: 0.434
UCUAGCCUGCUGUGGAAGGAAACAACGUGACUCAAGAUGAAGCUGUUUGUAUGUAUCCUUAUCAAAUAUAUUCUAUAAGGAAAUAAAAUCUGAAAAGUGACUUUCUUAUU: 0.923
CUGUGCAAUUAUGUAAAUUUUCAACUGUCUUCCUCAAAAUAAAGAAGUAUGGUAAUCUUUACCUGUAUACAGUGCAGAGCCUUCUCAGAAGCACAGAAUAUUUUUAUAUU: 0.373
